Results pooled from the literature.
Each line is one published result; not all experiments were run side by side. Numbers after ± are the reported error.
Sequence of UniProt P19784 (whole entry, looked up): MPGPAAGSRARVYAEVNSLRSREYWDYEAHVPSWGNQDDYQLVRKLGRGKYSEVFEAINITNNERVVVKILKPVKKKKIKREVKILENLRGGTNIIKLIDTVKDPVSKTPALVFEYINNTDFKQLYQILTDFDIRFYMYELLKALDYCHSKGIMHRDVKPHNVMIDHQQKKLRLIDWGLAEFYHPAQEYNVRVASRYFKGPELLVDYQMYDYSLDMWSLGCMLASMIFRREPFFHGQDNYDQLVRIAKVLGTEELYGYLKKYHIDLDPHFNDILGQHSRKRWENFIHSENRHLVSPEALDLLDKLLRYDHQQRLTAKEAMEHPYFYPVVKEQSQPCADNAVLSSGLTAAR

`CC(=O)[O][Pt]([NH2])([NH2])([Cl])([Cl])[O]C(=O)C(Cl)Cl` has an IC50 of 860 ± 200 nM (2008 ovarian adenocarcinoma; cytotoxicity, MTT; 72 h).
`COc1ccccc1-c1n[nH]c2nc(NC3CCN(C(=O)Cc4ccc(F)cc4F)CC3)ncc12` has a relative abundance of 1 (bead binding, competition bead pull-down, measured: LINJ.35.1820; Leishmania donovani axenic amastigote extract; 10 µM; reference: vehicle).
The IC50 of `Cc1cc(Nc2nc(C[C@@]3(C(=O)O)CCN(Cc4cccc(Cl)c4F)[C@H](C)C3)cc(C)c2F)[nH]n1` is reported as 86.2 nM (HCC1806; cell growth or viability, ATP luminescence; 5 days).
For `CC(C)[C@H]1NC(=O)C[C@H]2/C=C/CCSSC[C@@H](NC1=O)C(=O)N[C@H](Cc1cccc3ccccc13)C(=O)NCC(=O)O2`, the inhibition was -0.6% (EGFR (Homo sapiens, UniProt P00533, L858R/T790M); enzyme activity, inhibitor; 10 µM).
`Cc1c2ccncc2c(C)c2c1[nH]c1ccccc12` gave an IC50 of 1120 ± 158 nM (ARPE-19; cytotoxicity, CCK-8; 48 h).
For `CC(=O)N[C@H](C(=O)N[C@@H](CCCNC(=N)N)C(=O)N[C@@H](CCCCN)C(=O)N[C@@H](CCCNC(=N)N)C(=O)N[C@]1(C)CCCC=CCCC[C@@](C)(C(=O)N[C@@H](CC(C)C)C(=O)N[C@@H](CC(C)C)C(=O)N[C@@H](CCC(N)=O)C(=O)N[C@@H](CCC(=O)O)C(=O)N[C@@H](CCCNC(=N)N)C(=O)N[C@@H](CCC(=O)O)C(=O)N[C@@H](CC(C)C)C(=O)N[C@H](C(=O)N[C@@H](CCC(=O)O)C(N)=O)C(C)C)NC(=O)[C@H](CCCNC(=N)N)NC(=O)[C@H](CC(C)C)NC1=O)C(C)C`, the IC50 was roughly 91000 nM (A-431 (wild-type EGFR); cell viability; 18 h).
With `O[C@]12C=C(c3nccc4c3[nH]c3ccccc34)[C@@H]3CCN(CCCC/C=C\CC1)C[C@@]31C[C@@H]3/C=C\CCCCN3[C@H]12` the IC50 was 2.15 µg/mL (LLC-PK11; cell growth or viability, neutral red; 48 h).
`CS(C)(=O)=Nc1ccc(-c2ccc(-c3nc4cc(O[C@@H]5CO[C@H]6[C@@H]5OC[C@H]6O)[nH]c4cc3F)cc2)cc1` gave an inhibition of -10% (CSNK2A2 (Homo sapiens, UniProt P19784); enzyme activity, inhibitor; 10 µM).
`CC(C)C12OC1C1OC13C1(C)CCC4=C(COC4=O)C1CC1OC13C2OC(=O)CCC(=O)OC1OC(CO)C(O)C(O)C1O` (stereo not shown) has an IC50 of 500 nM (PC-3; cell growth or viability, XTT; 47 h).
`O=C1NC2(CC2)COc2ncc(F)cc2[C@H]2COCCN2c2ccn3ncc1c3n2` — result for “organ-to-brain weight ratio”: 24.6 ± 5.52% (Sprague-Dawley rat, female, uterus; oral, 5 mg/kg/day, 4 weeks, end of treatment).
`Cc1ccc(C(C)C)cc1.F[P-](F)(F)(F)(F)F.[Cl][Os+]1[N]2C=CC=c3ccc4c(c32)[N]1C=CC=4` gave an IC50 of greater than 100000 nM (M109; cell growth or viability, MTT).
With `O=C(c1cc(Cc2n[nH]c(=O)c3ccccc23)ccc1F)N1CC(CNC2CC2)C1` the IC50 was 130 nM (CAPAN-1).
With `Cc1cc(Oc2nc(N3CC[C@@H](c4ccncc4)C3)ncc2F)[nH]n1` the IC50 was 42700 nM (TE-671; cell proliferation; muscle cancer).

A few entries again:
With `Cc1cc(Oc2nc(N3CC[C@@H](c4ccncc4)C3)ncc2F)[nH]n1` the IC50 was 42700 nM (TE-671; cell proliferation; muscle cancer).
